Published values pooled from the literature.
Numbered parts are unrelated; each lists some results of a single study. Substitutions count along the parent as printed.

Series 1
Target: CCND2, cyclin fold, Cln2 fusion (human)
Method: yeast growth competition, sequencing
Matrix: yeast
Notes: weak parent motif
Baseline: not given
Reading: higher = stronger binding
Measurement: normalised enrichment score
Starting sequence: SAMHD1 docking peptide (human); ASKSRVQLFKDDP; partner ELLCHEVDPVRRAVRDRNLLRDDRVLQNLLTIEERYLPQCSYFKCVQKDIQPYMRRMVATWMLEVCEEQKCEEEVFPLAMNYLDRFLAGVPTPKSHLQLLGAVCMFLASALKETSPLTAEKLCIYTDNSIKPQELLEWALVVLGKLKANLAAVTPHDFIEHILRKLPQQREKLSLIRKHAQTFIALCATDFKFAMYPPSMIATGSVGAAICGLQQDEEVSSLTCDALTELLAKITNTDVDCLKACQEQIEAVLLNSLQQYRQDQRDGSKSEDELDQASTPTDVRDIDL
ASKSRVQLFKDKP [D12K]: 0.0952
ASKSRVQLFKEDP [D11E]: 0.219
ASKSRVQKFKDDP [L8K]: 0.332
ASKSRVQLFKDRP [D12R]: -0.265
ASKSRVSLFKDDP [Q7S]: -0.0308
ASKSRVQLEKDDP [F9E]: 0.0389
ASKSRVQLFKDVP [D12V]: 0.383
ASKSRVQLFKADP [D11A]: -0.0599

Series 2
Target: ABI1, truncated, D143A, DHFR fusion (Arabidopsis thaliana)
Method: DHFR PCA, deep sequencing
Matrix: yeast
Notes: methotrexate growth selection, single substitutions
Added: (+)-ABA 0.032 µM
Baseline: wild-type fitted maximum
Reading: higher = stronger binding
Measurement: relative binding score
Starting sequence: PYL1, truncated, DHFR fusion (Arabidopsis thaliana); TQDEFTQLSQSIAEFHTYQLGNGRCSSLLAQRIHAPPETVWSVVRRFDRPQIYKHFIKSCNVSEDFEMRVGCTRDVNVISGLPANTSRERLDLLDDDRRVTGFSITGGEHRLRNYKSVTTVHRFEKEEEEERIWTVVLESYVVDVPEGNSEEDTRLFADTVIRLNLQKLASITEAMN
F124G: 2.51%
D96F: 2.56%
S117V: 1.86%
E14M: 0.536%
T173N: 3.57%
E151K: 38%

Series 3
Target: Fragile X messenger ribonucleoprotein 1, C-terminal low-complexity region (Fmr1, Mus musculus, UniProt P35922)
Method: RNA Bind-n-Seq
Molecule type: RNA
Matrix: in vitro
Tested at: 200 nM
Notes: whole 134-nt RNA, ends assumed
Added: 150 mM LiCl
Baseline: input library
Reading: higher = stronger binding
Measurement: log2 enrichment
All molecules: 7-deaza-guanosine replaces G
Constant ends, left off below: GGGAGUUCUACAGUCCGACGAUC … UGGAAUUCUCGGGUGUCAAGG
UGGCCCUGGUGGCAUGCGGGGAGGAAGAGGUGGCCUCAUGGAUCGUGGUGGUCCCGGUGGAAUGUUCAGAGGUGGCCGUGUUGGAGACAG: -0.794
CCACCAUGACCCCUGACGGUCUGGCUGUGACCCCAACGCCGGUGCCCGUGGUCGGGAGCCAGAUGACCAGACAAGCCCGGCGCCUCUACG: 0.669
CCUCAAGUCCUGUGCUACACAUCGUAUGUACCGAAUCGGAGGAGGUUUUUGGAAAGUAUUAUGUUACGCCGUUCGGAUCUGCACUUCCAG: -0.408
GUCCUGUGCUACACAUCGUAUGUACCGAAUCAAACCCAAACCCCCCCAAACCCCCAAAAAAGUAUUAUGUUACGCCGUUCGGAUCUGCAC: 0.505
UUCAGGAUUGUGAGGGUGAAACUCCCAUUCACAAGGCAGCUCGCUCUGGGAGCCUAGAAUGCAUCAGUGCCCUUGUGGCGAAUGGGGCUC: -1.7
UAACUUUAGAGGAGGAUCUGAUGGAUAUGGCAGUGGACGUGGAUUUGGGGAUGGCUAUAAUGGGUAUGGAGGAGGACCUGGAGAUGGCAA: 0.035
AGUCCUGUGCUACACAUCGUAUGUACCGAAUCGGAAAAAGGGGAAAAAGGAAAAAGGAAAGUAUUAUGUUACGCCGUUCGGAUCUGCACU: -1.53
CAAGUCCUGUGCUACACAUCGUAUGUACCGAAUCGGAGGAAAAAAAGGUUUUUGGAAAGUAUUAUGUUACGCCGUUCGGAUCUGCACUUC: -1.45

Further values, each from its own experiment
PhoQ, residues 284 288 289 292 302 303 SIHMAM
fold induction (PhoP, residues 12 14 15 18 19 YHFSH (Escherichia coli, UniProt P23836); Sort-seq, refers to: YFP reporter; E. coli; PhoQ-PhoP variant library, added: 10 µM Mg2+; baseline: high Mg2+ state, higher = stronger signaling): 1.5

A few entries again (series 1):
ASKSRVQLFKDVP [D12V]: 0.383
ASKSRVQLEKDDP [F9E]: 0.0389
ASKSRVQKFKDDP [L8K]: 0.332
